Assay results gathered from unrelated publications.
Protocols differ between the studies behind these lines.

O=C1c2c(O)ccc(O)c2C(=O)c2c(NCCNCCO)ccc(NCCNCCO)c21  maximum inhibition (human coronavirus OC43; virus-induced cell killing; MRC-5; maximum over 10 doses): 0%
O=C1Nc2cc3[nH]nc(-c4ccncc4)c3cc2CN1Cc1ccccc1  patients with decreased appetite (CTCAE v4.03; advanced solid tumour patients; intravenous, 0.45 mg/kg, schedules 1/2): 0%
C=CCNc1c(O)cc2c(O)c1C[C@@H](C)C[C@H](OC)[C@H](O)[C@@H](C)/C=C(\C)[C@H](OC(N)=O)[C@@H](OC)/C=C\C=C(/C)C(=O)N2  patients with ALT increase (unresectable or metastatic sarcoma; intravenous, 400 mg/m^2, grade 3-4 lab change): 9%
N[C@@H]1c2ccccc2OC12CCN(c1cnc3c(N4CCCc5ncccc54)n[nH]c3n1)CC2  patients with fatal TEAE (advanced solid tumour patients; oral, 75 mg once daily): 0%
CO[C@H]1C[C@@H]2CC[C@@H](C)[C@@](O)(O2)C(=O)C(=O)N2CCCC[C@H]2C(=O)O[C@H]([C@H](C)C[C@@H]2CC[C@@H](OC(=O)NCCOCCOCCOCCOCCOCCOCCOCCOCCC(=O)N3CCc4cc(Cn5nc(-c6ccc7oc(N)nc7c6)c6c(N)ncnc65)ccc4C3)[C@H](OC)C2)C[C@@H](O)[C@H](C)/C=C(\C)[C@@H](O)[C@@H](OC)C(=O)[C@H](C)C[C@H](C)/C=C/C=C/C=C/1C  patients with AE (refers to: treatment-emergent AEs; patients with advanced solid tumours; intravenous, 1.6 mg/3 mg, any grade, weekly): 0%
C[C@@H]1OC(=O)NN=C1c1ccc(-c2ccc(F)cc2)c(C(F)(F)F)c1  patients with AST increased (patients, phase I trial; oral, 5 mg once daily, any grade TEAE): 0%
CC(=O)c1c(C)c2cnc(Nc3ccc(C4CCN(CCS(C)(=O)=O)CC4)cn3)nc2n(C2CCCC2)c1=O  patients with serious adverse reactions (HR+/HER2- advanced breast cancer patients; oral, 100 mg, dose escalation): 0%
CCN(CCO)CCCC(C)Nc1ccnc2cc(Cl)ccc12 (centres unmarked)  patients with adverse event (refers to: Infections grade 3; newly diagnosed glioblastoma patients; oral, 800 mg/dose, with radiotherapy and temozolomide): 66%
O=C1CCCC(=O)C1C(=O)c1ccc(C(F)(F)F)cc1[N+](=O)[O-]  maximum inhibition (human coronavirus OC43; virus-induced cell killing; MRC-5; screen): 18.2%
CN1CC[C@@H](c2c(O)cc(O)c3c(=O)cc(-c4ccc(C(F)(F)F)cc4Cl)oc23)[C@@H]1CO  patients with adverse event (refers to: Anemia; B-cell malignancies or AML; oral, 50 mg, continuous dosing): 25%
Cc1cc(OCCOCCC(F)(F)P(=O)(O)O)ccc1CCc1cnc2c(N)nc3cc(CCC(=O)O)ccc3c2c1  patients with non-serious AE (refers to: pruritus; adults with advanced solid tumours; dose not given, by treatment group, all grades): 4.8%

Excerpt of the above:
CC(=O)c1c(C)c2cnc(Nc3ccc(C4CCN(CCS(C)(=O)=O)CC4)cn3)nc2n(C2CCCC2)c1=O  patients with serious adverse reactions (HR+/HER2- advanced breast cancer patients; oral, 100 mg, dose escalation): 0%
CCN(CCO)CCCC(C)Nc1ccnc2cc(Cl)ccc12 (centres unmarked)  patients with adverse event (refers to: Infections grade 3; newly diagnosed glioblastoma patients; oral, 800 mg/dose, with radiotherapy and temozolomide): 66%
